# Earlier results that unrelated publications cite.
# Numbered parts are unrelated; values within a part may stem from several laboratories. ± gives the spread as reported.
# Chain of UniProt Q8TCC7 (whole entry, looked up): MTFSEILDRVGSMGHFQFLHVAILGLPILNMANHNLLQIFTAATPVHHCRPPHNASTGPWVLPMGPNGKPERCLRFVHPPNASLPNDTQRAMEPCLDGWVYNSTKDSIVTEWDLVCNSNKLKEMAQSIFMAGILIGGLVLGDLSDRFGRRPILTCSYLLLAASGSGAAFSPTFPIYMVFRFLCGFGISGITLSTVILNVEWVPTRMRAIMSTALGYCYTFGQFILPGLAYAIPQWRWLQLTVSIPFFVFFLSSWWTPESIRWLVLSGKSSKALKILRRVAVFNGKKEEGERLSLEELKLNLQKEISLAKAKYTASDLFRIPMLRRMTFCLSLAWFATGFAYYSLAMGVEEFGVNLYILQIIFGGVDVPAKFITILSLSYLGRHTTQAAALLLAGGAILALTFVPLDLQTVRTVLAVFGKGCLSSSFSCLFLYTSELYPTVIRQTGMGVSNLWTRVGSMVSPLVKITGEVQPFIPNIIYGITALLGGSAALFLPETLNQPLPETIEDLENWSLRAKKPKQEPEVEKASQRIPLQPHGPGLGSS

# Block 1 — effect on: viral replication
# SMILES: O=C(NCc1c(F)cc(F)cc1F)c1cn2c(c(O)c1=O)C(=O)N1[C@H]3CC[C@H](C3)O[C@@H]1C2
tested on,assay,system,conditions,EC50 [nM]
HIV-1,single-round vector infection,IN G118R,,9.1 ± 1.6
HIV-1,single-round vector infection,IN N155H,,2.7 ± 0.8
HIV-1 integrase S230N,,HIV-1,single-round vector,2.6 ± 0.6

# Single results of other studies
Structure (SMILES),tested on,assay,system,conditions,endpoint,result
CN(C)CCCN1c2ccccc2Sc2ccc(C(F)(F)F)cc21,MERS-CoV,"viral replication, ELISA",Vero E6,,EC50,5760 nM
O=c1c(O)c(-c2cc(O)c(O)c(O)c2)oc2cc(O)cc(O)c12,Ebola virus VP35,"dsRNA binding, inhibitor",,,IC50,2700 nM
CCN(CC)CCCC(C)Nc1ccnc2cc(Cl)ccc12 (stereo not shown),SARS-CoV,cytopathic effect,Vero E6,,EC50,6540 nM
C[C@@H]1C[C@H]2[C@@H]3CCC4=CC(=O)C=C[C@]4(C)[C@@]3(F)[C@@H](O)C[C@]2(C)[C@@]1(O)C(=O)CO,"Organic anion transporter 3 (SLC22A8, Homo sapiens, UniProt Q8TCC7)","transport activity, inhibitor",,,IC50,47100 nM
CN(C)CCCN1c2ccccc2Sc2ccccc21,Ebola virus,viral replication,"Vero E6, eGFP reporter",,EC50,21000 nM
CCOC(=O)[C@H]1O[C@@H]1C(=O)N[C@@H](CC(C)C)C(=O)NCCC(C)C,Ebola virus,viral replication,,concentration not given,infectious progeny yield,decreased
CN(C)CCOc1ccc(/C(=C(/CCCl)c2ccccc2)c2ccccc2)cc1,Ebola virus,"viral replication, eGFP reporter virus",Vero E6,,IC50,162 nM

# A few entries again (single results of other studies):
Structure (SMILES),tested on,assay,system,conditions,endpoint,result
O=c1c(O)c(-c2cc(O)c(O)c(O)c2)oc2cc(O)cc(O)c12,Ebola virus VP35,"dsRNA binding, inhibitor",,,IC50,2700 nM
